Measured values gathered from unrelated publications.
Each numbered part is a random draw from the data of one study; scales do not carry over between parts.
Chain of UniProt P23458 (whole entry, looked up): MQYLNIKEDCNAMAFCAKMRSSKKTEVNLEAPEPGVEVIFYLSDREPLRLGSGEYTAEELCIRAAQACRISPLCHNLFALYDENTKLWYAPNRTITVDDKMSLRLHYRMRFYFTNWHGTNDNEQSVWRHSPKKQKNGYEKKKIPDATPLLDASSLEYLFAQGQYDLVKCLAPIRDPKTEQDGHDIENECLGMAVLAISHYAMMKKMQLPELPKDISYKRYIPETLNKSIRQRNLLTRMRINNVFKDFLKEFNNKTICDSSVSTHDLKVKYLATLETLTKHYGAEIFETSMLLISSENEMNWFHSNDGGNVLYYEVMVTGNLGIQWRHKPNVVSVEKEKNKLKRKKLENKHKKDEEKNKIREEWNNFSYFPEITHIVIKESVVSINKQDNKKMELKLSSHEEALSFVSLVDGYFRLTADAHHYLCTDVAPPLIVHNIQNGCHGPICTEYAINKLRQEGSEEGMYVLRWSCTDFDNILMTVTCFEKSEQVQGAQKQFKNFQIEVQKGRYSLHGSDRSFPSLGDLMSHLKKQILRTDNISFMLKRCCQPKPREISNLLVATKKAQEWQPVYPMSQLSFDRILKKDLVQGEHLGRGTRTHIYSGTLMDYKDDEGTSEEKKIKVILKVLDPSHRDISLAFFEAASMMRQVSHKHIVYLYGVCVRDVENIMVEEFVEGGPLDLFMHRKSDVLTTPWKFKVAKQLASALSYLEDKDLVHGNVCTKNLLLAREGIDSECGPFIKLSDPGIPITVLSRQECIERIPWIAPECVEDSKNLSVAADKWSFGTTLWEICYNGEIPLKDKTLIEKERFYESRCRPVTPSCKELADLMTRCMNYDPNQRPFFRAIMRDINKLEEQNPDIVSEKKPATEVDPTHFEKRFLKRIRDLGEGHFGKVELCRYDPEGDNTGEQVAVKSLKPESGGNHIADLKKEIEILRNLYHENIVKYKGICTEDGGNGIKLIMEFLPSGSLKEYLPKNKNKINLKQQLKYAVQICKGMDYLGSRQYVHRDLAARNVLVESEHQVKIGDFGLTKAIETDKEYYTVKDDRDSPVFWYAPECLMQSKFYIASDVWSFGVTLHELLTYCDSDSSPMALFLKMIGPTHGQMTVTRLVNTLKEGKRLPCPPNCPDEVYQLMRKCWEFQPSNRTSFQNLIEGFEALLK
Chain of UniProt P42336 (whole entry, unmodified, looked up): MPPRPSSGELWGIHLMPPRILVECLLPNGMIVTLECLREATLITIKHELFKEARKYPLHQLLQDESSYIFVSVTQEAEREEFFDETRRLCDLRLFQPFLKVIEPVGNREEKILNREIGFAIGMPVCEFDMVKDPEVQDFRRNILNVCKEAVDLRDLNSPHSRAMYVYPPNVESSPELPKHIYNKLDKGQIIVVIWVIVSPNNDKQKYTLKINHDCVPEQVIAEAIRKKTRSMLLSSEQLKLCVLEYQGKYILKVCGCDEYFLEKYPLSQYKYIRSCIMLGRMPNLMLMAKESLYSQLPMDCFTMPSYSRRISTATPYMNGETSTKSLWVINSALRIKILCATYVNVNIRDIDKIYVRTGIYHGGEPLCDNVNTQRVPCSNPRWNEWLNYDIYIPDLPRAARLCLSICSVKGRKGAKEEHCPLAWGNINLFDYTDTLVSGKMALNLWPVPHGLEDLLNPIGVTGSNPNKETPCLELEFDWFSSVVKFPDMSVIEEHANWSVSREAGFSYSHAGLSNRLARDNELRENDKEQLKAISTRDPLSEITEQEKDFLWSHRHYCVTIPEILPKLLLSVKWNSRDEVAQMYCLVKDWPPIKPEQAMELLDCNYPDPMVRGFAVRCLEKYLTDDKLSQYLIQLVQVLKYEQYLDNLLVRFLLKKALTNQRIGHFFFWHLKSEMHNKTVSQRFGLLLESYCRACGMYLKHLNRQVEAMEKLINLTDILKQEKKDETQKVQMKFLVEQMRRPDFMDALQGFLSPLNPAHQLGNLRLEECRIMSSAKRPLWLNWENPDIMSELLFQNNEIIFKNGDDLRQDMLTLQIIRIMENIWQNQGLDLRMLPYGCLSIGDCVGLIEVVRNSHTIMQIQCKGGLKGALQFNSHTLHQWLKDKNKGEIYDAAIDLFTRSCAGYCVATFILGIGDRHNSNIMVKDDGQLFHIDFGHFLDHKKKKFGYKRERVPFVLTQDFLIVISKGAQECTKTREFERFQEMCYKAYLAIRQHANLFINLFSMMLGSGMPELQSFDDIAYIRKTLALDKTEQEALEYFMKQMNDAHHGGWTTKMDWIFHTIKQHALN
Chain of UniProt Q9NRH2 (whole entry, looked up): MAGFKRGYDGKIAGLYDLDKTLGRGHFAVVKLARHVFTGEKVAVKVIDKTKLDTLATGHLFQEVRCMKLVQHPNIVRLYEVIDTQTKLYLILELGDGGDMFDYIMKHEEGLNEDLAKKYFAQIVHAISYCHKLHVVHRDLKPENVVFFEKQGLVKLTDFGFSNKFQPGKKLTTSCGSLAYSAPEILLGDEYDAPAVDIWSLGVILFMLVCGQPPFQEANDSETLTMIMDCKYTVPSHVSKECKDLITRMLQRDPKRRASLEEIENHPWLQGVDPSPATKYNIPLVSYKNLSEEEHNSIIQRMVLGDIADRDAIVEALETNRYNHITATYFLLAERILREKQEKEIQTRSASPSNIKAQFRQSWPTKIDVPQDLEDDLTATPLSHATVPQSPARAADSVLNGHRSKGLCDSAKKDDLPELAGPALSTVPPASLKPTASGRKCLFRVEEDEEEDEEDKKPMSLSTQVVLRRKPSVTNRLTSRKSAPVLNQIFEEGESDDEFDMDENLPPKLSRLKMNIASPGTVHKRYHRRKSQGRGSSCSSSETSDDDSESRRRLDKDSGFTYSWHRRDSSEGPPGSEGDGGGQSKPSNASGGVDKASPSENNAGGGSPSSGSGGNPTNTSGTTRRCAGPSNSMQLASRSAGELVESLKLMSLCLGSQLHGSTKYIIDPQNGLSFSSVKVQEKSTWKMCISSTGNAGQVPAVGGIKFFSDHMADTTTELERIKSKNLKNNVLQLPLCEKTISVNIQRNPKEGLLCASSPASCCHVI
Chain of UniProt Q9UBF8 (whole entry, looked up): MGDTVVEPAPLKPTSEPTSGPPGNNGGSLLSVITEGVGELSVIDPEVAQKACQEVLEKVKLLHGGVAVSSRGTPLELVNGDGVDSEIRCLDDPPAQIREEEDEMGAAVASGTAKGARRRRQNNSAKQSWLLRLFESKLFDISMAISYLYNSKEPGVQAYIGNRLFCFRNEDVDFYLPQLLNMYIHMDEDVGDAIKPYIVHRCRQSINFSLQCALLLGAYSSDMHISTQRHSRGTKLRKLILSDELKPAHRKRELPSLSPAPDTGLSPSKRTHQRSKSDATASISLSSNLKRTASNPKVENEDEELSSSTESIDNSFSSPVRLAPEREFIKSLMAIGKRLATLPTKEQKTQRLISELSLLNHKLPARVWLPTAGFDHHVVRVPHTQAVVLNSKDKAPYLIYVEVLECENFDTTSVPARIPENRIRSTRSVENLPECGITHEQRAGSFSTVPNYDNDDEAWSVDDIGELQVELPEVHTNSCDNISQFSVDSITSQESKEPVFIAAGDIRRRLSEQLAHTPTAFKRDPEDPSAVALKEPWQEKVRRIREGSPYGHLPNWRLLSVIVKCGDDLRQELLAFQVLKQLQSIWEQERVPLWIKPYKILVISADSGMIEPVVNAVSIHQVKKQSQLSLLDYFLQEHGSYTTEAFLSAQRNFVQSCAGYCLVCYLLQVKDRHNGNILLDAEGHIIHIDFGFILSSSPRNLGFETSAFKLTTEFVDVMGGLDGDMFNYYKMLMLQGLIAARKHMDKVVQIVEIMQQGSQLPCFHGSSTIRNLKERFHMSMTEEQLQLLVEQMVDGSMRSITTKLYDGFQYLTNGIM
Chain of UniProt O75460 (whole entry, looked up): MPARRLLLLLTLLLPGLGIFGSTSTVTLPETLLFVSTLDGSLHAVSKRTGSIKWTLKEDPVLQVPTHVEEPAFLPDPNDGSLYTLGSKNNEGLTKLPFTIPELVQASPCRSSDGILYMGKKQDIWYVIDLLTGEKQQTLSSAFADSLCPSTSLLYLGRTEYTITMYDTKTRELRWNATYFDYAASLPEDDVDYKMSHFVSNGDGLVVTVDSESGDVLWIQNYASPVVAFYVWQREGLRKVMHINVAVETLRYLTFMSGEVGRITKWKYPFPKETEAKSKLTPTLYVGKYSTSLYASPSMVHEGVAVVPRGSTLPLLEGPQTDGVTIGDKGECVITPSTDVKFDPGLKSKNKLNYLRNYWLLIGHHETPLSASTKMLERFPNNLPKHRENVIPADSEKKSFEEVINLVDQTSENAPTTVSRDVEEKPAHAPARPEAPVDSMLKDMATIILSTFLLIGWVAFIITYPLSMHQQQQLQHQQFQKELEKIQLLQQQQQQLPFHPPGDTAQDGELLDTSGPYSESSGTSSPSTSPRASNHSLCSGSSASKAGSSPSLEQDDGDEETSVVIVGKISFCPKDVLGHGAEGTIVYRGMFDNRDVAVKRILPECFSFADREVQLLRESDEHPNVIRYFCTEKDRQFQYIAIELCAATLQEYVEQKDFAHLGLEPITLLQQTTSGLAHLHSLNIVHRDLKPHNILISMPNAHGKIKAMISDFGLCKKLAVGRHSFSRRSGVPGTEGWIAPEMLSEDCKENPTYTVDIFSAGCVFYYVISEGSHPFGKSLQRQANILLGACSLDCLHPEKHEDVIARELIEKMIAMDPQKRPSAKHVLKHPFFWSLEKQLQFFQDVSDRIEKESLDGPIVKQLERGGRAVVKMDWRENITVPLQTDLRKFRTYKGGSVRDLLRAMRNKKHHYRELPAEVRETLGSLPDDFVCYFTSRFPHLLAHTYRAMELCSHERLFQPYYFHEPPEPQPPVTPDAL

Block 1
Host: human
Matrix: microsomes or S9
Concentration: 2 µM
Time: 0.5 h
SMILES | remaining compound [%]
COC(=O)C12CCC(=O)N1CCc1c2n(C(=O)OC(C)(C)C)c2ccccc12 (stereo not shown) | 79.6
CCC(=O)N(CCC1(c2ccccc2)CCOC(C)(C)C1)CC1CCOC(C)(C)C1 (stereo not shown) | 1.9
COC(=O)c1cccnc1C1=NC(C)(C(C)C)C(=O)N1 (stereo not shown) | > 100
Clc1nn2c(-c3ccccc3)nnc2c2ccccc12 | 1.31
COc1ccc(CN2CCC3(CCNCC3)C2)cc1Cn1cncn1 | 19.3
c1ccc(-c2nc3c(-c4ccccc4)ccc(-c4ccccc4)n3n2)cc1 | 78.2
Cc1c(-c2cc(Cn3ccnc3C(C)C)on2)cnn1C | 94
CCC(CC)(CC)S(=O)(=O)Cc1csc(C(C)(C)C)n1 | 0.191
CC1(C)C=C(N2CCCC2=O)c2cc(C#N)ccc2O1 | 74.3
CC12CCC(C(=O)N(c3ccccn3)c3ccccn3)(OC1=O)C2(C)C (stereo not shown) | 22.8
COc1cc(CC2CC(c3cc(OC)c4c(c3)OCO4)=NO2)cc2c1OCO2 (stereo not shown) | 24.2
Cc1nnc(SCC(=O)Nc2nc[nH]n2)s1 | 94
COc1cc2c(cc1OC)C1CCCCC1OC2c1cccc(F)c1 (stereo not shown) | 52.7
Cc1cc(C)cc(N(C(=O)Cc2cccs2)C(C(=O)NC2CCCC2)c2ccncc2)c1 (stereo not shown) | 5.36
COc1cccc(CNC(=O)N2Cc3c(sc4c3CCCC4)-n3cccc3C2C)c1 (stereo not shown) | 1.78

Block 2
Compound: C[C@H]1CC[C@H](n2c3cnccc3c3cnc(Nc4ccc5c(n4)CCN(C(=O)CO)C5)nc32)CC1
Effect on: cell-free assay
Concentration: 1 µM
target | remaining signal
ERN1 (Homo sapiens, UniProt O75460) | 55%
PI4KB (Homo sapiens, UniProt Q9UBF8) | 29%
MAP2K6 (Homo sapiens, UniProt P52564) | 22%
PIP4K2B (Homo sapiens, UniProt P78356) | 53%
PIK3CA (Homo sapiens, UniProt P42336, I800L) | 80%
DAPK1 (Homo sapiens, UniProt P53355) | 91%
SNRK (Homo sapiens, UniProt Q9NRH2) | 100%
FLT3 (Homo sapiens, UniProt P36888, D835H) | 2.9%
PAK5 (Homo sapiens, UniProt Q9P286) | 100%
KIT (Homo sapiens, UniProt P10721, V559D) | 6.3%
CSNK2A2 (Homo sapiens, UniProt P19784) | 0.15%
FES (Homo sapiens, UniProt P07332) | 100%
DAPK2 (Homo sapiens, UniProt Q9UIK4) | 71%
JAK1 (Homo sapiens, UniProt P23458) | 4.1%

Block 3
Target: NUAK family SNF1-like kinase 2 (NUAK2, Homo sapiens, UniProt Q9H093)
Effect on: enzyme activity
Action: inhibitor
Concentration: 0.5 µM
Relative to: control
Residues (Q9H093 1-628): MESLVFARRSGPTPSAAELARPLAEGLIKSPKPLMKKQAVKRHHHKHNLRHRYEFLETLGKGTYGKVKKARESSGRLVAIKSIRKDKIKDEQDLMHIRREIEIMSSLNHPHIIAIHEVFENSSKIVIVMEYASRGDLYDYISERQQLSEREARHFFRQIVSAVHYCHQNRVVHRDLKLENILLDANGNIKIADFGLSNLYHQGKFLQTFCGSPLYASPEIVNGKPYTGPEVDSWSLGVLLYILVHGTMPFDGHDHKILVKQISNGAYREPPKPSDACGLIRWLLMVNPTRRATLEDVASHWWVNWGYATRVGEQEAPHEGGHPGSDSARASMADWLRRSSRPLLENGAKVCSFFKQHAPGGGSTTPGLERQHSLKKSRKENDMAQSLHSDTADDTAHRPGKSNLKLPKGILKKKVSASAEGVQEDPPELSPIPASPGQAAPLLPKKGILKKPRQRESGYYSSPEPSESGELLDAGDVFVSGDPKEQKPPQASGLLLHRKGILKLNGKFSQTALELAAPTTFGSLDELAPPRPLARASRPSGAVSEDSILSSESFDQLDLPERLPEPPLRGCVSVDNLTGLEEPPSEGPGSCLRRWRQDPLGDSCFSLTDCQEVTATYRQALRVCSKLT
SMILES | remaining activity
CNC(=O)c1cc(Oc2ccc(NC(=O)Nc3ccc(Cl)c(C(F)(F)F)c3)cc2)ccn1 | 101%
Nc1[nH]nc2nc3ccccc3nc12 | 96.3%
CO[C@H]1C[C@@H]2CC[C@@H](C)[C@@](O)(O2)C(=O)C(=O)N2CCCC[C@H]2C(=O)O[C@H]([C@H](C)C[C@@H]2CC[C@@H](O)[C@H](OC)C2)CC(=O)[C@H](C)/C=C(\C)[C@@H](O)[C@@H](OC)C(=O)[C@H](C)C[C@H](C)/C=C/C=C/C=C/1C | 140%
COc1ccc(OC)c2c(=S)c3ccccc3[nH]c12 | 98.9%
Oc1ccc(-c2nc(-c3ccncc3)c(-c3ccc(F)cc3)[nH]2)cc1 | 128%
Cn1c2ccccc2c2c3c(c4c5ccccc5n(CCC#N)c4c21)CNC3=O | 40.5%
O=C1NC(=O)C(c2cn(CCCn3ccnc3)c3ccccc23)=C1Nc1ccccc1 | 113%
CC(C)[C@H](CO)Nc1nc(Nc2cc(N)cc(Cl)c2)c2ncn(C(C)C)c2n1 | 81.4%
Cc1nc(-c2ccccc2)c(-c2ccncc2)o1 | 128%
Nc1ccc2ncnc(NCCc3ccc(Oc4ccccc4)cc3)c2c1 | 112%
O=S(=O)(c1cccc2cnccc12)N1CCCNCC1 | 83.5%
Cn1sc(=O)n(Cc2ccccc2)c1=O | 97.7%
Nc1ncnc2n[nH]c(Nc3ccc(F)cc3)c12 | 90.4%
CN(C)c1ccc(C=C2C(=O)Nc3ccccc32)cc1 | 94.3%
CCOC(=O)c1c(C)[nH]c(/C=C2\C(=O)Nc3ccccc32)c1C | 128%

Block 4
Structure (SMILES): CCCCN(CCCC)C(=O)CN1C[C@H](c2cc(OC)c3c(c2)OCO3)[C@@H](C(=O)O)[C@@H]1CC(C)(C)CCC
Effect on: cell-free assay
Technique: competition with immobilised ligand
Concentration: 1 µM
target | remaining binding [%]
IRAK1 (Homo sapiens, UniProt P51617) | 64.3
MAP4K2 (Homo sapiens, UniProt Q12851) | 54.4
PLK3 (Homo sapiens, UniProt Q9H4B4) | 90.6
STK32B (Homo sapiens, UniProt Q9NY57) | 81.7
MYLK2 (Homo sapiens, UniProt Q9H1R3) | 100
PIKFYVE (Homo sapiens, UniProt Q9Y2I7) | 100
PIK3CA (Homo sapiens, UniProt P42336, I800L) | 52.9
NIM1K (Homo sapiens, UniProt Q8IY84) | 100
MARK2 (Homo sapiens, UniProt Q7KZI7) | 100
Tyrosine-protein kinase JAK1, JH1 (JAK1, Homo sapiens, UniProt P23458) | 98
HIPK1 (Homo sapiens, UniProt Q86Z02) | 100
NUAK1 (Homo sapiens, UniProt O60285) | 100
MAPK11 (Homo sapiens, UniProt Q15759) | 94.2
Ribosomal protein S6 kinase alpha-1, C-terminal kinase domain (RPS6KA1, Homo sapiens, UniProt Q15418) | 100
BMPR2 (Homo sapiens, UniProt Q13873) | 80
PIK3C2G (Homo sapiens, UniProt O75747) | 100
NUAK2 (Homo sapiens, UniProt Q9H093) | 79.4

Some of these lines once more (block 4):
target | remaining binding [%]
PLK3 (Homo sapiens, UniProt Q9H4B4) | 90.6
STK32B (Homo sapiens, UniProt Q9NY57) | 81.7
MYLK2 (Homo sapiens, UniProt Q9H1R3) | 100
PIKFYVE (Homo sapiens, UniProt Q9Y2I7) | 100
PIK3CA (Homo sapiens, UniProt P42336, I800L) | 52.9
NIM1K (Homo sapiens, UniProt Q8IY84) | 100
MARK2 (Homo sapiens, UniProt Q7KZI7) | 100
Tyrosine-protein kinase JAK1, JH1 (JAK1, Homo sapiens, UniProt P23458) | 98
HIPK1 (Homo sapiens, UniProt Q86Z02) | 100
NUAK1 (Homo sapiens, UniProt O60285) | 100
